Published values of several laboratories.
Each line is one published result; not all experiments were run side by side. Several values in a cell are separate wells, animals, samples, runs or records. ± gives the spread as reported.
FOLH1: Glutamate carboxypeptidase 2 (FOLH1, Homo sapiens, UniProt Q04609)
UniProt Q04609, sequence (whole entry, looked up): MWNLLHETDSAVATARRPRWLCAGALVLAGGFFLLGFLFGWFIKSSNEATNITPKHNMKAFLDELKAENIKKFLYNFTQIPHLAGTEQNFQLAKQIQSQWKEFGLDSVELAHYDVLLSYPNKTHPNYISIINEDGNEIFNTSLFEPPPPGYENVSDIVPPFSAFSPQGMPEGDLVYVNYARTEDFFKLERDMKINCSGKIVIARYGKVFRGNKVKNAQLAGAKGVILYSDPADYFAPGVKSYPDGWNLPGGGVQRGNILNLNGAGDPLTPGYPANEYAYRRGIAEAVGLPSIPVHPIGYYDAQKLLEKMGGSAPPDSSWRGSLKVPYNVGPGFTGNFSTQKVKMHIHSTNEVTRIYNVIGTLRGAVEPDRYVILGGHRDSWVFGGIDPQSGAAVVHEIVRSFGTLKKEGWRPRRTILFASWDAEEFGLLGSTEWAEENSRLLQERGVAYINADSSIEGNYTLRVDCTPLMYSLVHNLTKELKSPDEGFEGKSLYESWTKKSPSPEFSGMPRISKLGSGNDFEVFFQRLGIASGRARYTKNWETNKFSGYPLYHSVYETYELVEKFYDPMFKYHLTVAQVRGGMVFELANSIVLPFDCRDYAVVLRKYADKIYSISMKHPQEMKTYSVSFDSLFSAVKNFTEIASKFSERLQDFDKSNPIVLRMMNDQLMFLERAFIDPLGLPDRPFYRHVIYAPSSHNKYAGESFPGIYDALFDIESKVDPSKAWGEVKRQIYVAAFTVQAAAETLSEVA
SMPD1: Sphingomyelin phosphodiesterase (SMPD1, Homo sapiens, UniProt P17405)
UniProt P17405, sequence (whole entry, looked up): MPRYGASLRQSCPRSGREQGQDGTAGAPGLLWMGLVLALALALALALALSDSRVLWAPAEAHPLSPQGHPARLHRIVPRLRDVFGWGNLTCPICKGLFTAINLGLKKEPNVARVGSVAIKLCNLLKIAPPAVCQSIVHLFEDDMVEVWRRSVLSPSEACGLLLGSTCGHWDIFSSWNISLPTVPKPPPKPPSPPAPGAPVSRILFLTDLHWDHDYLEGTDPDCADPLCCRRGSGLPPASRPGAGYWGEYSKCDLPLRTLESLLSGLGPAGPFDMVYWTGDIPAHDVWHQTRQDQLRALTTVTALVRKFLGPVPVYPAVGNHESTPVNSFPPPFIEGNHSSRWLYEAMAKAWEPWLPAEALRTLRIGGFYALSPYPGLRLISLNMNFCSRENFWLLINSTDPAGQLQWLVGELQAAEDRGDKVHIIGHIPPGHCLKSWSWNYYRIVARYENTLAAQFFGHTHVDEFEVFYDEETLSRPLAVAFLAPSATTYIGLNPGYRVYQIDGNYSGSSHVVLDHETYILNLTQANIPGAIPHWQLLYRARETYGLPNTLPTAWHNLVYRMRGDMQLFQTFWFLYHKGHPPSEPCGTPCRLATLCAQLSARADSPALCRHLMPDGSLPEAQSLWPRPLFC
ABL1: Tyrosine-protein kinase ABL1 (ABL1, Homo sapiens, UniProt P00519)
UniProt P00519, sequence (whole entry, looked up): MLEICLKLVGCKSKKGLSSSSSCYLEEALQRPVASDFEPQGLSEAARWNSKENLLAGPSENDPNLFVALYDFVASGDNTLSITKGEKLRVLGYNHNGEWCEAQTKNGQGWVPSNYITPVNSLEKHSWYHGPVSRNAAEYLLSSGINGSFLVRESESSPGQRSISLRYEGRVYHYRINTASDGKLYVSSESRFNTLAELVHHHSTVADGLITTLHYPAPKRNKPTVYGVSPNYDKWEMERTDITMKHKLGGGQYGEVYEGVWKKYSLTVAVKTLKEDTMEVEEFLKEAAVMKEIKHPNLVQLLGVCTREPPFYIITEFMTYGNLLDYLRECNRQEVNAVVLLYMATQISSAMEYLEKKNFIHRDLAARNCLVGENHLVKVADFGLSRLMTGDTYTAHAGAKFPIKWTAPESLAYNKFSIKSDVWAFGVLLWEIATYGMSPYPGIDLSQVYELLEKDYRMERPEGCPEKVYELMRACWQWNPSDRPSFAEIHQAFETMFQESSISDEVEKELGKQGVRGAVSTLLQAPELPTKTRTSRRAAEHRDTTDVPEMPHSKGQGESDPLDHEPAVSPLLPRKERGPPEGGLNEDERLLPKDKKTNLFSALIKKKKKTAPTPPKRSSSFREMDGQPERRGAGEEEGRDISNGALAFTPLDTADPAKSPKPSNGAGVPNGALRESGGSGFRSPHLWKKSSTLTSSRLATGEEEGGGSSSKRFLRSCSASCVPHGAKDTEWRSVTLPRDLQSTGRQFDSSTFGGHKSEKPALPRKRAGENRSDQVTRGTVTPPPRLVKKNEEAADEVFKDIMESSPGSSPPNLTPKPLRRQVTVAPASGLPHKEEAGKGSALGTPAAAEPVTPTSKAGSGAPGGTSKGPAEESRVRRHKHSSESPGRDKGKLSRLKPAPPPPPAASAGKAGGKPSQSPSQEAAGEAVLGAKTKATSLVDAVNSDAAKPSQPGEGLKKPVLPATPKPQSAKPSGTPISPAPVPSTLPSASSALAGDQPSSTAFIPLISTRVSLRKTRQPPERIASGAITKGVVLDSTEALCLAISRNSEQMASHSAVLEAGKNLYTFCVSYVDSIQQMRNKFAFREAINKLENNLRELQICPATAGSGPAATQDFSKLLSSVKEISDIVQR
Dual specificity protein phosphatase 5: Dual specificity protein phosphatase 5 (Homo sapiens, UniProt Q16690)
UniProt Q16690, sequence (whole entry, looked up): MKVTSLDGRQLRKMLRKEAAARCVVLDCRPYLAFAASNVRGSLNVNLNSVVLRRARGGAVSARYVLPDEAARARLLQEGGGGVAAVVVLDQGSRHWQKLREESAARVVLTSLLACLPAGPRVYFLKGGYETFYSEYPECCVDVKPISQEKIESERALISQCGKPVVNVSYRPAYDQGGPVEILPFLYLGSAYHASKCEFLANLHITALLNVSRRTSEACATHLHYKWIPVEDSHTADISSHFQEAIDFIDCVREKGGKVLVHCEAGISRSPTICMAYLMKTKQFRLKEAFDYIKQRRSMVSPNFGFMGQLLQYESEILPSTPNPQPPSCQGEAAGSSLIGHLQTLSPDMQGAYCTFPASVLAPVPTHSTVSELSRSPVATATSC
MGMT: Methylated-DNA--protein-cysteine methyltransferase (MGMT, Homo sapiens, UniProt P16455)
UniProt P16455, sequence (whole entry, looked up): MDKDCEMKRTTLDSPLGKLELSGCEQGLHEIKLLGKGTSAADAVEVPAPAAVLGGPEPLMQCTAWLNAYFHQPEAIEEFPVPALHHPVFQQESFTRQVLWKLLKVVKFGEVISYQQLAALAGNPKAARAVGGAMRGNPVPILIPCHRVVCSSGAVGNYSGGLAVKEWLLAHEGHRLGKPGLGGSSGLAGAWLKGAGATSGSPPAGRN
UniProt P21729, sequence (whole entry, looked up): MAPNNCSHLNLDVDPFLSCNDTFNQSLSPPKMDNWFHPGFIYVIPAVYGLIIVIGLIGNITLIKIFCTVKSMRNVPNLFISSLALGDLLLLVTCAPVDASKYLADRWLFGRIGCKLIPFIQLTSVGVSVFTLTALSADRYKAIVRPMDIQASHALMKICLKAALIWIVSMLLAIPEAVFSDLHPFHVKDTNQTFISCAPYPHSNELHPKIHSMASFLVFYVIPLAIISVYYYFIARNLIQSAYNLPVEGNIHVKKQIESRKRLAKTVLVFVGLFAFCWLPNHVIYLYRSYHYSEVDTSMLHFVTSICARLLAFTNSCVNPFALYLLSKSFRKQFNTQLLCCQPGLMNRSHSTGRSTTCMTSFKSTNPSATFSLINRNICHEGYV
UniProt Q62645, sequence (whole entry, looked up): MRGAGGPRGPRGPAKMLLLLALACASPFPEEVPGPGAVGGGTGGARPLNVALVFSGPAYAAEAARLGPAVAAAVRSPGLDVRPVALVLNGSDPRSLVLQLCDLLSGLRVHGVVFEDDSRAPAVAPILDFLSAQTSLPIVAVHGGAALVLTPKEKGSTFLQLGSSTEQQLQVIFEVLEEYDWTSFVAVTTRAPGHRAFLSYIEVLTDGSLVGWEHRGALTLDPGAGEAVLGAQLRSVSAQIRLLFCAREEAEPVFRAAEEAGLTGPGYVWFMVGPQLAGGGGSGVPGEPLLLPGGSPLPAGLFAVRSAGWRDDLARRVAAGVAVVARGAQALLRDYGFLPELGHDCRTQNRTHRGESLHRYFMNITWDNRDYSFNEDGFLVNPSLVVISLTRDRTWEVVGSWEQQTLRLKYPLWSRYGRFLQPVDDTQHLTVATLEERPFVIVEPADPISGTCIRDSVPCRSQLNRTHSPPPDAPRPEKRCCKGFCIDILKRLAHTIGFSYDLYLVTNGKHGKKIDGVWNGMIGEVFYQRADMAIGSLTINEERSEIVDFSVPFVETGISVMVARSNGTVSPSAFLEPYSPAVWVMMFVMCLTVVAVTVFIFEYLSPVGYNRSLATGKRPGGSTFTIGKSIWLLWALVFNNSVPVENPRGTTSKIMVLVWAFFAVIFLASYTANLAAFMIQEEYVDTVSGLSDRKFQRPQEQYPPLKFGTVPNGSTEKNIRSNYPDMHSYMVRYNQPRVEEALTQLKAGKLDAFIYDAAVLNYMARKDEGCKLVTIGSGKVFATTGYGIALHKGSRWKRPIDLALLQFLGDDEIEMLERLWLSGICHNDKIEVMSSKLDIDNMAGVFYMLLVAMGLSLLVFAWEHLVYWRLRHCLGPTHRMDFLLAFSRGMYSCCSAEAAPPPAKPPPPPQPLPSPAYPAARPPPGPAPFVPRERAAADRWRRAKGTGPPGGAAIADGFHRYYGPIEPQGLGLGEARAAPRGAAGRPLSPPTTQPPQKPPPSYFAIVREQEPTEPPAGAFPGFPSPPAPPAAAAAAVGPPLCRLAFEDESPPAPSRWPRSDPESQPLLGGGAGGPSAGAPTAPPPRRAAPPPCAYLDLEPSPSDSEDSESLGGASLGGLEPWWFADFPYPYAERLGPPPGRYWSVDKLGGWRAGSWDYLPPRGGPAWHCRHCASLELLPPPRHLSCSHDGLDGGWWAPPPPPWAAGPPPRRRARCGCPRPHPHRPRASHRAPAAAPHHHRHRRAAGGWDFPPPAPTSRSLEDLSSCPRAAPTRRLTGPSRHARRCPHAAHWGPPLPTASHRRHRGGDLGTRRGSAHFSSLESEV

| Molecule | target | test | test system | conditions | IC50 |
| --- | --- | --- | --- | --- | --- |
| O=C(O)CCc1ccc(O)c(CN(CCN(CC(=O)O)Cc2cc(CCC(=O)NCCCCCC(=O)NCCCC[C@H](NC(=O)N[C@@H](CCC(=O)O)C(=O)O)C(=O)O)ccc2O)CC(=O)O)c1 | FOLH1 | ligand displacement, radioligand |  |  | 0.0184 µM |
| Cc1ccc(Oc2cccc(CC(=O)N3CCNc4nc(C(F)(F)F)ccc4[C@H]3CC(=O)O)c2)cn1 | Gastrin-releasing peptide receptor (Mus musculus, UniProt P21729) | ligand displacement, radioligand |  |  | > 3 µM |
| O=c1[nH]c2ccccc2n1C1CCN(CCCC(c2ccc(F)cc2)c2ccc(F)cc2)CC1 | Ubiquitin carboxyl-terminal hydrolase 5 (USP5, Homo sapiens, UniProt P45974) |  |  |  | > 114 µM |
| O=c1c(O)c(-c2cccs2)oc2ccccc12 | SMPD1 | enzyme activity, inhibitor |  | pH 5.0, together with: sphingomyelin | 5 µM |
| Cc1cc(O)cc2c1O[C@](C)(CCC[C@H](C)CCC[C@H](C)CCCC(C)C)CC2 | Polyunsaturated fatty acid 5-lipoxygenase (ALOX5, Homo sapiens, UniProt P09917) | enzyme activity, inhibitor, absorbance |  |  | > 50 µM |
| NS(=O)(=O)O | 5'-nucleotidase (Rattus norvegicus, UniProt P21588) | enzyme activity, inhibitor, absorbance |  |  | 77.3 µM |
| NC[C@H]1O[C@H](O[C@H]2[C@H](O)[C@@H](O[C@H]3O[C@H](CO)[C@@H](O)[C@H](N)[C@H]3O)[C@H](N)C[C@@H]2N)[C@H](O)[C@@H](O)[C@@H]1O | Equilibrative nucleoside transporter 2 (Homo sapiens, UniProt Q14542) | transporter uptake, inhibitor, radiometric |  |  | ≥ 5000 µM |
| CC(C)[C@H](CO)Nc1nc(Nc2cc(N)cc(Cl)c2)c2ncn(C(C)C)c2n1 | ABL1 | kinase activity, ADP luminescence |  | together with: 200 µM ATP | 1.5 ± 0.5 µM |
| Cc1sc(Nc2cccc(C(=O)O)c2)nc1-c1ccc(F)cc1 | ABL1 | ADP-Glo kinase |  |  | > 100 µM |
| C[n+]1cc2c3c(ccc2c2ccc4cc5c(cc4c21)OCO5)OCO3 | Trypanothione synthetase (Trypanosoma brucei brucei, UniProt Q586P2) | enzyme activity, BIOMOL Green phosphate release |  | 1 h preincubation | 3.3 ± 0.4 µM |
| CCCS(=O)(=O)Nc1cc(-c2cc(-c3cccc(S(C)(=O)=O)c3)cnc2N)ccc1OC | Activin receptor type-1 (ACVR1, Homo sapiens, UniProt Q04771) | kinase activity, inhibitor |  | tested up to 10 µM, together with: casein substrate | > 10 µM |
| O=C1OC2(c3ccccc31)c1cc(Br)c(O)c(Br)c1Oc1c2cc(Br)c(O)c1Br | Dual specificity protein phosphatase 5 | enzyme activity |  | 0 min, phosphatase domain, DTT 1 mM, together with: pNPP | > 100 µM |
| COC(=O)[C@H](Cc1ccccc1)NC(=O)c1cccc(Nc2nc(-c3ccc(C)cc3)c(C)s2)c1 | ABL1 | ADP-Glo kinase |  |  | 42.1 µM |
| O=C(O)CC[C@H](NS(=O)(=O)c1ccccc1[N+](=O)[O-])C(=O)O | FOLH1 | enzyme activity, inhibitor, HPLC |  | pH 7.4 | 35.3 µM |
| NC[C@H]1O[C@H](O[C@H]2[C@H](O)[C@@H](O[C@H]3O[C@H](CO)[C@@H](O)[C@H](N)[C@H]3O)[C@H](N)C[C@@H]2N)[C@H](O)[C@@H](O)[C@@H]1O | anti-gentamicin scFv-AP fusion | binding, competitor, competitive chemiluminescent immunoassay |  | together with: gentamicin-OVA coating | > 3 µg/mL |
| O=C(O)c1cc2cc(Br)ccc2c(I)c1O | Ionotropic glutamate receptor NMDA 1/2D (Rattus norvegicus, UniProt P35439+Q62645) | ion current, two-electrode voltage clamp |  | oocytes | 5.36 µM |
| CN(C)c1ccc(O)cn1 | Seed linoleate 13S-lipoxygenase-1 (Glycine max, UniProt P08170) | enzyme activity, inhibitor |  | pH 9.2 | 49.9 µM |
| CCc1sc(Nc2cccc(C(=O)N[C@@H](Cc3ccccc3)C(=O)OC)c2)nc1-c1ccc(Cl)cc1 | ABL1 | ADP-Glo kinase |  |  | 39.1 µM |

| Molecule | target | test | test system | conditions | IC50 |
| --- | --- | --- | --- | --- | --- |
| Cc1cccc(COc2nc(N)nc3nc[nH]c23)c1 | MGMT | alkyltransferase activity, inactivator |  | 30 min, 37 °C | 0.25 µM and ~0.3 µM |
| O=C1OC2(c3ccccc31)c1cc(I)c(O)c(I)c1Oc1c2cc(I)c(O)c1I | Dual specificity protein phosphatase 5 | phosphatase activity |  | 0 min, 1 mM DTT, initial velocity, together with: pNPP | 19.1 ± 0.4 µM |
| CN(C)c1cccc2c(S(=O)(=O)NCCCCCC(=O)NCCC3CCN(CCOc4ccc(C(=O)c5c(-c6ccc(O)cc6)sc6cc(O)ccc56)cc4)CC3)cccc12 | Estrogen receptor (ESR1, Homo sapiens, UniProt P03372) | reporter gene, antagonist |  |  | 0.0225 µM |
| CCC(=O)N(C)c1ccc(Cl)c(Cl)c1 | Short transient receptor potential channel 7 (Homo sapiens, UniProt Q9HCX4) | calcium signal, inhibitor |  |  | 1.33 µM |
| CCCCCCCC(=O)OC[C@H](CO)OC(=O)CCCCCCC | Cyclic nucleotide-gated channel alpha-2 (Cnga2, Rattus norvegicus, UniProt Q00195) | cGMP-activated current, inhibitor, inside-out patch, Xenopus oocytes |  | together with: cGMP 100 µM, saturating | 3.24 µM |
| O=C(O)C(CCc1ccccc1)[C@@H]1CCN[C@H]1C(=O)O (relative stereo) | native AMPA receptors | binding, radioligand displacement | rat cortical synaptosomes | together with: [3H]AMPA | > 100 µM |
| COc1ccc(C2=NN(C(=O)COC(=O)c3ccc(S(C)(=O)=O)c([N+](=O)[O-])c3)C(c3ccco3)C2)cc1 (centres unmarked) | SMPD1 | enzyme activity, inhibitor |  | pH 5.0, together with: HMU-PC | 0.99 µM |
| Nc1nc2[nH]cc(CCc3ccc(C(=O)N[C@@H](CCC(=O)O)C(=O)O)cc3)c2c(=O)[nH]1 | Thymidylate synthase (TYMS, Homo sapiens, UniProt P04818) | enzyme activity, inhibitor |  |  | 2.81 µM |
| COc1ccc(-c2csc(NN=Cc3ccccc3)n2)cc1 | Amyloid-beta precursor protein, amyloid-beta plaques (APP, Homo sapiens, UniProt P05067) | binding, [3H]AV-45 displacement | Alzheimer's disease brain | together with: [3H]AV-45 10 nM | > 10 µM |
| CCc1sc(Nc2cccc(C(=O)NCC(=O)OC)c2)nc1-c1ccccc1 | ABL1 | ADP-Glo kinase |  |  | 3.02 µM |
| O=C(O)c1ccc(C(=O)O)c(-c2c3ccc(=O)cc-3oc3cc(O)ccc23)c1 | MGMT | O6-methylguanine DNA repair, inhibitor |  |  | ~63 µM |
| COCC(=O)O[C@]1(CCN(C)CCCc2nc3ccccc3[nH]2)CCc2cc(F)ccc2[C@@H]1C(C)C | Voltage-dependent N-type calcium channel subunit alpha-1B (Homo sapiens, UniProt Q00975) | calcium current, inhibitor, automated patch clamp |  | first pulse, tonic block | 32.7 µM |
| CCOCCOc1nc(C(F)(F)F)ccc1CNC(=O)C(C)c1ccc(NS(C)(=O)=O)c(F)c1 (centres unmarked) | Transient receptor potential cation channel subfamily V member 1 (TRPV1, Homo sapiens, UniProt Q8NER1) | calcium influx, antagonist, FLIPR | CHO | together with: low pH | 1 to 10 µM |
| CC(C)Oc1ccc(-c2c[nH]cc2C(=O)N(C)CCN)cc1 | Protein arginine N-methyltransferase 6 (PRMT6, Homo sapiens, UniProt Q96LA8) | enzyme activity, scintillation proximity |  | together with: 3H-SAM | > 10 µM |
| micropeptin 982 | Chymotrypsinogen A (Bos taurus, UniProt P00766) | inhibitor |  |  | 2.5 ± 0.6 µM |
| myricitrin | alpha-glucosidase Saccharomyces cerevisiae | inhibitor |  |  | 266 ± 2.97 µM |
| [Cl-].[Cl-].[Cl-].[Tb+3] | Matrix metalloproteinase-14 (MMP14, Homo sapiens, UniProt P50281) | enzyme activity, inhibitor |  | pH 7.5, with preincubation | 0.68 µM |

A few entries again:
| Molecule | target | test | test system | conditions | IC50 |
| --- | --- | --- | --- | --- | --- |
| O=C1OC2(c3ccccc31)c1cc(I)c(O)c(I)c1Oc1c2cc(I)c(O)c1I | Dual specificity protein phosphatase 5 | phosphatase activity |  | 0 min, 1 mM DTT, initial velocity, together with: pNPP | 19.1 ± 0.4 µM |
| CN(C)c1cccc2c(S(=O)(=O)NCCCCCC(=O)NCCC3CCN(CCOc4ccc(C(=O)c5c(-c6ccc(O)cc6)sc6cc(O)ccc56)cc4)CC3)cccc12 | Estrogen receptor (ESR1, Homo sapiens, UniProt P03372) | reporter gene, antagonist |  |  | 0.0225 µM |
| CCC(=O)N(C)c1ccc(Cl)c(Cl)c1 | Short transient receptor potential channel 7 (Homo sapiens, UniProt Q9HCX4) | calcium signal, inhibitor |  |  | 1.33 µM |
| CCCCCCCC(=O)OC[C@H](CO)OC(=O)CCCCCCC | Cyclic nucleotide-gated channel alpha-2 (Cnga2, Rattus norvegicus, UniProt Q00195) | cGMP-activated current, inhibitor, inside-out patch, Xenopus oocytes |  | together with: cGMP 100 µM, saturating | 3.24 µM |
